Published values gathered from unrelated publications.
± marks the error that the study gave.

SMILES	tested on	test	system	setting	measurement	result
CCN(CC)Cc1cc(Nc2ccnc3cc(Cl)ccc23)ccc1O	Dengue virus 2	viral replication	BHK-21	96 h	EC90	2.71 ± 0.85 µM
O=C(C1=C(O)c2ccccc2S(=O)(=O)N1)c1cccc(Cl)c1	HIV-1	viral replication	PBMC		EC90	> 100 µM
CC(C)(C)NC(=O)N(CCCCCCN1C[C@H](O)[C@@H](O)[C@H](O)[C@H]1CO)C1CCCCC1	bovine viral diarrhea virus		MDBK	22 h	EC90	16.3 ± 7.8 µM
CN[C@@](C)(C[18F])C(=O)O			mouse, pancreas	1 h, tumour-bearing	tracer uptake	34 %ID/g
CC(=NNC(=O)CN1c2c(-c3ccccc3)n[nH]c2-c2ccccc2S1(=O)=O)c1ccc(Cl)s1	HIV-1	viral replication	PBMC		EC90	> 100 µM
CN(C)c1ccc(C=NNC(=O)CN2c3c(n[nH]c3-c3cccc(Cl)c3)-c3ccccc3S2(=O)=O)cc1	HIV-1	viral replication	PBMC		EC90	13.3 µM
CC(=NNC(=O)CN1c2c(-c3ccccc3)n[nH]c2-c2ccccc2S1(=O)=O)c1sccc1Br	HIV-1	viral replication	PBMC		EC90	> 100 µM
COC(=O)CN1C(C(=O)c2cccc(Cl)c2)=C(O)c2ccccc2S1(=O)=O	HIV-1	viral replication	PBMC		EC90	73.7 µM
CC(=NNC(=O)CN1c2c(-c3ccccc3)n[nH]c2-c2ccccc2S1(=O)=O)c1ccc2c(c1)OCCO2	HIV-1	viral replication	PBMC		EC90	> 100 µM
CC(C)(C)C(=O)N(CCCCCCN1C[C@H](O)[C@@H](O)[C@H](O)[C@H]1CO)C1CCCCC1	bovine viral diarrhea virus		MDBK	22 h	EC90	16 ± 12 µM

Repeated from above:
SMILES	tested on	test	system	setting	measurement	result
CC(=NNC(=O)CN1c2c(-c3ccccc3)n[nH]c2-c2ccccc2S1(=O)=O)c1sccc1Br	HIV-1	viral replication	PBMC		EC90	> 100 µM
